Experimental data collected from several papers.
Each numbered part is a random draw from the data of one study; scales do not carry over between parts. Positions count from the first letter of the parent shown.

Sample 1
Target: CCNE1, cyclin fold, Cln2 fusion (human)
Technique: yeast growth competition, sequencing
Sample: yeast
Setting: weak parent motif
Relative to: not given
Direction: higher = stronger binding
Parent: ORC1 docking peptide (human); PRARKRLELGNLG
`K5H`: “normalised enrichment score” 0.61.
`N11G`: “normalised enrichment score” 0.888.
For `R2Q`, “normalised enrichment score” read 0.148.
For `K5V`, “normalised enrichment score” read -0.284.
`L12G` — result for “normalised enrichment score”: 0.0488.
For `R2G`, “normalised enrichment score” read -0.206.
`L12I`: “normalised enrichment score” 0.0529.

Sample 2
Target: Fragile X messenger ribonucleoprotein 1, C-terminal low-complexity region (Fmr1, Mus musculus, UniProt P35922)
Technique: RNA Bind-n-Seq
Form: RNA
Sample: in vitro
Tested at: 200 nM
Setting: whole 134-nt RNA, ends assumed
Together with: 150 mM LiCl
Relative to: input library
Direction: higher = stronger binding
Library: 7-deaza-guanosine replaces G
All sequences stand within: GGGAGUUCUACAGUCCGACGAUC … UGGAAUUCUCGGGUGUCAAGG
`AGUCCUGUGCUACACAUCGUAUGUACCGAAUCGGGUUUUUGGGUUUUUGGUUUUUGGGAAAGUAUUAUGUUACGCCGUUCGGAUCUGCAC` gave a log2 enrichment of -1.6.
The log2 enrichment of `AAGUCCUGUGCUACACAUCGUAUGUACCGAAUCGGGUUUUGGGUUUUGGUUUUGGGGAAAGUAUUAUGUUACGCCGUUCGGAUCUGCACU` is reported as -1.31.
For `UGGCCCUGGUGGCAUGGGGGGAGGAAGAGGUGGCCUCAUGGAUCGUGGUGGUCCCGGUGGAAUGUUCAGAGGUGGCCGUGGUGGAGACAG`, the log2 enrichment was 0.641.
`GCAGGAAGUAAAAACAAAUGGAAAUGCUUCGGAUAGUGGCAGGGGUGGGAAAUGCUAAGGAAAGGGUGGGAUGGGAGUGGGUAAAGAGUU` has a log2 enrichment of 1.27.
For `UCAAGUCCUGUGCUACACAUCGUAUGUACCGAAUCGGGGUUUGGGUUUGGUUUGGAAAGUAUUAUGUUACGCCGUUCGGAUCUGCACUUC`, the log2 enrichment was -0.652.
`AAGUCCUGUGCUACACAUCGUAUGUACCGAAUCGGGCCCCGGGCCCCGGCCCCGGGGAAAGUAUUAUGUUACGCCGUUCGGAUCUGCACU` gave a log2 enrichment of -2.07.
The log2 enrichment of `AGUCCUGUGCUACACAUCGUAUGUACCGAAUCGGGUUUUUGGUUUUUGGGUUUUUGGGAAAGUAUUAUGUUACGCCGUUCGGAUCUGCAC` is reported as -1.45.
`AGUCCUGUGCUACACAUCGUAUGUACCGAAUCGGGAGGGUUUUUUUGGGAAAAAGGGAAAGUAUUAUGUUACGCCGUUCGGAUCUGCACU` has a log2 enrichment of -1.46.

Sample 3
Target: RNA binding protein fox-1 homolog 2, RRM domain, GST-SBP tag (RBFOX2, Homo sapiens, UniProt O43251-10, residues 100-194)
Technique: RNA Bind-n-Seq
Form: RNA
Sample: in vitro
Tested at: 365 nM
Setting: natural RNA segment, single round, ends assumed
Relative to: no-protein control
Direction: higher = stronger binding
All sequences stand within: GGGAGUUCUACAGUCCGACGAUC … UGGAAUUCUCGGGUGCCAA
Residues (chain): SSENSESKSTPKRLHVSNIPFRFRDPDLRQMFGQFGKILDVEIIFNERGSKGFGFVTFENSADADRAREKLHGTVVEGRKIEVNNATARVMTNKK
For `UGAAACUUUACAUUUGUUGACUUUUUUUCAUUCUCAUUUAAAAUAUAUUGUGCUAUGAUAACCAACCUUCUUCCAAGGAGUGACCAUUACUGCCUACAUUUGCGUUGCUU`, “RBNS enrichment (R)” read 0.674.
For `GGAGGAAGACCCUCAGUUAUUUUGUCACCCAACCUGGCAUAGGACUCUUUGGUCCUACCCGCUUCCCAUCACCGGAGGAGCUUCCCCGGCCGGGAGACCAGUGUUAGAGG`, “RBNS enrichment (R)” read 0.2.
Under “RBNS enrichment (R)”, `GCAUUUUUGUUUAGACUCCCUGAGGUUCCGUUUUACACAUGAUCCAACGUUAACUACCUUUUUUUCUGUAUGCUUUCCAAAGUCCUUUUUUUUCCCUUAAUGUUGAAUUA` is recorded as 51.6.
`UACCCUAGUGGUGGCGGUCAAGCUAACAAGUGUGAAAAUGCCUUUGGCAUUUUUAAAAAAGUGCAAUCAAUAAAGCAGAGUUCUGUCAAGAAUGAGUAAGUUAACAGCCA`: “RBNS enrichment (R)” 0.307.
`CUGUCCUUCCACACCAAAGACAUGGUGGUGCUGCUGCUGCUGCUUCUGCUGGUGAAGUCUGUGUCCAAGGCAGGGGCCAGCAGAAACUCCAGCCUGCUGUCUACCAAAGG`: “RBNS enrichment (R)” 0.266.
`AGACCUCCCCGCUCCAUGACGCUGCCGUGUGCCUACGCAGAUUACAGUGACGAAUACGUGUCAUGAUUUCAUCUCACCCAGUCACCGAGUGGAAAGCAAGCCGAGGUGUA`: “RBNS enrichment (R)” 0.621.
Under “RBNS enrichment (R)”, `AGGAGAUGAAGUUUGGAAUCCAGUUUCUUUGGCUCAGAGCUGCUUUCAGUACCACUUGUUUUUAGCAGACUGUCAUGGCUGCAGCUCUGUCUCUCUUGGGGUAAACUUGC` is recorded as 0.392.
`AGGCUGGUACCGCAGCGCCAUGCCCAUUCCUCGCCUCAUUCAUAGGACACUUCACUGCCAUUUUCUAUUCACAUAAAAGAAAAAUAAAUGUGGAAAUUUCAUCCUUGGAA`: “RBNS enrichment (R)” 0.363.
Under “RBNS enrichment (R)”, `GAAUCGGUCCAGUUAAGUGCAUGCAAAACGCCACCAAUGAAGGGAUUCUAUCCAGCAAGGUCCUGUUUCCAAGAGUAGCCUAUGGAAUCUGAUCAGUUACUUUAAAAAAU` is recorded as 10.7.
`CAAGCACUGUCCUGAGGGGAUACUGUGGAGCAGCCCAGUCCACACCAGAGCCCCACGCGGCUGCCCGGCAGUACCUCCUCCAGGCAGGAGCCGGGACUGUCACUUUGGAG` — result for “RBNS enrichment (R)”: 0.352.
Under “RBNS enrichment (R)”, `UUAACUCUAGAAUCCCGUGUGCCCUUCUUGCUCACCGAACGUGAGAGUAUGGGCUGAGCAGGGGGAUUGAAUGUGACUGUUAAAAACACUCAUGUACUGUCCAAAAGUGC` is recorded as 0.439.
`GAAUCAGUCCCCUGUGGAUACCAAGGUACAACUGUAUUUAUUAACGCUUACUAGAUGUGAGGAGAGUCUGAAUAUUUUCAGUGAUCUUGGCUGUUUCAAAAAAAUCUAUU`: “RBNS enrichment (R)” 0.623.

Mixed results
The fold induction of `PhoQ, residues 284 288 289 292 302 303 AAQSYM` is reported as 1.32 (PhoP, residues 12 14 15 18 19 AQCLL (Escherichia coli, UniProt P23836); Sort-seq, measured: YFP reporter; E. coli; PhoQ-PhoP variant library, together with: 10 µM Mg2+; relative to: high Mg2+ state, higher = stronger signaling).

Repeated from above (sample 2):
`AGUCCUGUGCUACACAUCGUAUGUACCGAAUCGGGUUUUUGGGUUUUUGGUUUUUGGGAAAGUAUUAUGUUACGCCGUUCGGAUCUGCAC` gave a log2 enrichment of -1.6.
The log2 enrichment of `AAGUCCUGUGCUACACAUCGUAUGUACCGAAUCGGGUUUUGGGUUUUGGUUUUGGGGAAAGUAUUAUGUUACGCCGUUCGGAUCUGCACU` is reported as -1.31.
For `UGGCCCUGGUGGCAUGGGGGGAGGAAGAGGUGGCCUCAUGGAUCGUGGUGGUCCCGGUGGAAUGUUCAGAGGUGGCCGUGGUGGAGACAG`, the log2 enrichment was 0.641.
`GCAGGAAGUAAAAACAAAUGGAAAUGCUUCGGAUAGUGGCAGGGGUGGGAAAUGCUAAGGAAAGGGUGGGAUGGGAGUGGGUAAAGAGUU` has a log2 enrichment of 1.27.
